# Published values from different studies.
# Each numbered part is a random draw from the data of one study; scales do not carry over between parts. Changes are numbered by the printed parent chain.

# Set 1
# Target: ABI1, truncated, D143A, DHFR fusion (Arabidopsis thaliana)
# Technique: DHFR PCA, deep sequencing
# Sample: yeast
# Notes: methotrexate growth selection, single substitutions
# Added: (+)-ABA 1.4 µM
# Relative to: wild-type fitted maximum
# Direction: higher = stronger binding
# Starting sequence: PYL1, truncated, DHFR fusion (Arabidopsis thaliana); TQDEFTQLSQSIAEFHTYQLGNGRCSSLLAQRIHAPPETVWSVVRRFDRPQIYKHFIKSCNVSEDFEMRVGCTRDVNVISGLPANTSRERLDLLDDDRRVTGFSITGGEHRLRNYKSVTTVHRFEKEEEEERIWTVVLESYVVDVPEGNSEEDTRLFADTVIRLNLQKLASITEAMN; partner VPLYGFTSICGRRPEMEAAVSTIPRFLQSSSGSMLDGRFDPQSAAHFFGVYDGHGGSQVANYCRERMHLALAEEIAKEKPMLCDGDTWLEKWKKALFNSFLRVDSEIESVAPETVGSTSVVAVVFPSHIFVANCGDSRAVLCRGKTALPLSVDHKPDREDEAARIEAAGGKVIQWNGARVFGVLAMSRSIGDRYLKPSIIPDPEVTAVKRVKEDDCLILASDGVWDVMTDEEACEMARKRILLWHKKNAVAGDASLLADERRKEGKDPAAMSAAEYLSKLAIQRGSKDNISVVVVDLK
Variant,relative binding score
I79Q,36.8%
V43P,-9.97%
S80P,1.79%
R163A,43.8%
V44D,-2.34%
I52Q,42%
S9C,39.7%
K126N,75.3%
R111P,11.6%
L93W,19.1%
S117T,4.87%
V136D,-0.81%
L94N,0.589%
H55V,97%
Q19G,34.7%

# Set 2
# Target: CCND2, cyclin fold, Cln2 fusion (human)
# Technique: yeast growth competition, sequencing
# Sample: yeast
# Notes: weak parent motif
# Relative to: not given
# Direction: higher = stronger binding
# Starting sequence: RBL2 docking peptide (human); STTRRRLFVENDS
Variant,normalised enrichment score
R6H,-0.0436
R4Y,0.738
N11Q,0.124
R4G,-0.123
T2D,-0.123
V9W,0.644
N11I,0.0149
N11T,0.185
D12F,0.149
V9I,-0.281
R6C,0.689
T3D,0.358

# Set 3
# Target: Histone acetyltransferase KAT6A, winged helix 2, GST fusion (KAT6A, Homo sapiens, UniProt Q92794, residues 85-181)
# Technique: protein binding microarray
# Form: double-stranded DNA, one strand shown
# Sample: in vitro
# Tested at: not given
# Notes: 8-mer, flanks averaged, mean of 2 arrays, mostly near background
# Relative to: not given
# Direction: higher = stronger binding
# Target sequence (chain): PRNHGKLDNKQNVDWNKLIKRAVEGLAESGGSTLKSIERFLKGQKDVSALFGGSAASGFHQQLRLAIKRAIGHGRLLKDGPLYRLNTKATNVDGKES
Sequence,E-score
ATGAAGGA,0.0584
CAGCGTGA,0.00134
GAATCGAC,-0.0168
GTGGAGAA,0.0432
ATTGTTCC,0.00095
AGGTCTTC,-0.00615
GCAGATCA,-0.109
AATAGGCC,-0.0847
CGACACAC,0.0723
ATTCGGCG,0.0839
TGATGACA,-0.0893
GATAAGTA,-0.0267

# Single results of other studies
Molecule,target,test,test system,conditions,how to read,measurement,result
"PhoQ, residues 284 288 289 292 302 303 NLGVHL","PhoP, residues 12 14 15 18 19 SMASL (Escherichia coli, UniProt P23836)","Sort-seq, measured: YFP reporter",E. coli,"PhoQ-PhoP variant library, added: 10 µM Mg2+","relative to: high Mg2+ state, higher = stronger signaling",fold induction,2.51

# Excerpt of the above (set 1):
Variant,relative binding score
V44D,-2.34%
I52Q,42%
S9C,39.7%
K126N,75.3%
R111P,11.6%
